Results from different studies.
Numbers after ± are the reported error.

| SMILES | test | system | setting | scale | quantity | value |
| --- | --- | --- | --- | --- | --- | --- |
| CCCCCCCCCCCCCCCC(=O)N[C@@H](CCC(=O)NCCCC[C@H](NC(=O)[C@H](CC(=O)O)NC(=O)[C@H](CO)NC(=O)[C@@H](NC(=O)[C@H](Cc1ccccc1)NC(=O)[C@@H](NC(=O)CNC(=O)[C@H](CCC(N)=O)NC(=O)[C@H](CO)NC(=O)[C@@H](N)Cc1c[nH]cn1)[C@@H](C)O)[C@@H](C)O)C(=O)N[C@@H](CO)C(=O)N[C@@H](CCC(=O)O)C(=O)N[C@@H](Cc1ccc(O)cc1)C(=O)N[C@@H](CC(C)C)C(=O)N[C@@H](CC(=O)O)C(=O)N[C@@H](CO)C(=O)N[C@@H](CCC(=O)O)C(=O)N[C@@H](CCCNC(=N)N)C(=O)N[C@@H](C)C(=O)N[C@@H](CCCNC(=N)N)C(=O)N[C@@H](CC(=O)O)C(=O)N[C@@H](Cc1ccccc1)C(=O)N[C@H](C(=O)N[C@@H](C)C(=O)N[C@@H](Cc1c[nH]c2ccccc12)C(=O)N[C@@H](CC(C)C)C(=O)N[C@@H](CCC(=O)O)C(=O)N[C@@H](C)C(=O)NCC(=O)NCC(=O)O)C(C)C)C(=O)O | – | diet-induced obese mouse | subcutaneous, 30 nmol/kg daily, 4 weeks | relative to: starting body weight | body weight loss | 30% |
| Cc1cnc(Nc2cc(C)c(C)c(C)c2)nc1Nc1ccc2oc(=O)[nH]c2c1 | – | rat, OVA asthma model | intratracheal, dose not given, 24 h after OVA challenge | relative to: vehicle | lung eosinophil count | decreased |
| NC(=O)C[C@H](N)C(=O)N1CCC[C@H]1C(=O)NCC(=O)NCC(=O)O | diketopiperazine formation, Arrhenius plot, ESI-MS | 1-propanol | 70, 80, 90 °C, 0.5% acetic acid | – | activation energy | 18.6 ± 0.478 kcal/mol |
| CCCCCCCCCC(=O)NCCCC[C@H](NC(=O)[C@H](CC(C)C)NC(=O)[C@H](CCCCN)NC(=O)[C@H](CCCCNC(=O)[C@H](CC(C)C)NC(=O)[C@H](CCN)NC(=O)[C@H](CCCCNC(=O)[C@H](Cc1ccccc1)NC(=O)[C@@H](N)CCCN)NC(=O)[C@H](Cc1ccccc1)NC(=O)[C@@H](N)CCCN)NC(=O)[C@H](CC(C)C)NC(=O)[C@H](CCN)NC(=O)[C@H](CCCCNC(=O)[C@H](Cc1ccccc1)NC(=O)[C@@H](N)CCCN)NC(=O)[C@H](Cc1ccccc1)NC(=O)[C@@H](N)CCCN)C(N)=O | carboxyfluorescein release | EYPG vesicles | 10 µg/mL, 250 s, pH 7.4, 25 °C | relative to: Triton X-100 | leakage | 64% |
| O=C1c2c(cc(O)c(-c3ccc(O)c(O)c3)c2O)OC1Cc1ccc(O)c(O)c1 (centres unmarked) | ABTS scavenging, absorbance | – | – | – | EC50 | 1100 µM |
| Sc1nnc(-c2cc(Cl)ccc2Cl)o1 | nitric oxide scavenging | – | – | – | IC50 | 101 ± 4.1 µM |
| CCCCCN(CCCCC)C(C)C(=O)c1cc(C)c2ccc3cc(C(C)C)ccc3c2c1.Cl (centres unmarked) | flow cytometry | humanized PD-1 mouse, MC38-hPD-L1 tumour, tumour | dose not given, day 30 | relative to: atezolizumab | regulatory T cells | decreased |
| COc1cc(Cn2ccc3cc(C(=O)NCC45CC6CC(CC(C6)C4)C5)ccc32)ccc1C(=O)NO | immunohistochemistry | 5xFAD mice, brain | intraperitoneal, 10 mg/kg daily, 2 months | relative to: vehicle | ASC burden | decreased |
| CC1=C(C2=C(C)C(=O)c3c(cc(O)c(O)c3Cc3ccccc3)C2=O)C(=O)c2cc(O)c(O)c(Cc3ccccc3)c2C1=O (single isomer, unassigned) | spleen shrinkage | B6 Bcl-2-transgenic mice | ip, 5 µmol/kg | relative to: maximum 50% | maximal activity | ~54% |
| Cc1ccc([C@@H]2O[C@H](CO)[C@@H](O)[C@H](O)[C@H]2O)cc1Cc1ccc(-c2ccc(F)cc2)s1 | – | rabbit, STZ-nicotinamide type 2 diabetes, serum | dose not given, 28 days | – | serum AST activity | 163 ± 0.47 U/L |
| CNC1CCC(N(Cc2cccc(-c3ccncc3)c2)C(=O)c2sc3ccccc3c2Cl)CC1 (centres unmarked) | – | chick neural plate explants | 22 h | – | concentration abolishing Pax7 | 1 to 10 nM |
| CCCC[C@H](NC(=O)[C@@H](NC(=O)[C@H](CC(=O)O)NC(=O)[C@H](CCC(N)=O)NC(=O)[C@H](CC(C)C)NC(=O)[C@H](CC(C)C)NC(=O)[C@H](CCCN)NC(=O)[C@H](CCCNC(=N)N)NC(=O)[C@H](C)NC(=O)[C@H](CO)NC(=O)[C@H](CC(C)C)NC(=O)[C@H](CCC(N)=O)NC(=O)[C@H](CC)NC(=O)[C@H](CC(C)C)NC(=O)[C@@H](NC(=O)[C@H](CCCN)NC(=O)[C@H](CCCNC(=N)N)NC(=O)[C@H](Cc1ccc(O)cc1)NC(=O)[C@H](CO)NC(=O)[C@H](CCC(N)=O)NC(=O)[C@@H](NC(=O)[C@H](Cc1c(F)c(F)c(F)c(F)c1F)NC(=O)[C@@H](NC(=O)[C@H](C)NC(=O)[C@H](CC(=O)O)NC(=O)[C@@H](C)NC(=O)[C@H](Cc1ccc(O)cc1)NC)[C@@H](C)CC)[C@@H](C)O)C(C)C)[C@@H](C)CC)C(=O)N[C@@H](CC(=O)O)C(=O)N[C@@H](CCCNC(=N)N)C(=O)NC | GH release | rat, male, serum | subcutaneous, dose not given, 15 and 30 min | relative to: reference GHRH agonist JI-38 | relative potency | 1 to 4 fold |
| O=C1CC(c2ccc(O)cc2)Oc2cc3oc4cc(O)c(O)cc4c3c(O)c21 (racemic) | ABTS scavenging, absorbance | – | – | – | EC50 | 1110 µM |
| CCc1nnc(NS(=O)(=O)c2ccc(NC(=S)NC(=O)/C=C/c3ccc(F)cc3)cc2)s1 | – | NXS2 allograft, A/J mice, tumour | intraperitoneal, 20 mg/kg daily, 3 weeks | relative to: vehicle | IL-1beta level | decreased |
| Cc1cc(O)c(C=O)c2c1C(=O)Oc1c(CO)c(O)c3c(c1O2)C(O)OC3=O (centres unmarked) | – | rat, male, streptozotocin-induced diabetes, cauda epididymis | 5 mg/kg, 9 weeks | – | sperm abnormalities | 13.2 ± 1.47% |
| O=C([O-])CN1CCN(CC(=O)[O-])CCN(CC(=O)c2ccc(-c3ccc(OCC(=O)O)cc3)cc2)CCN(CC(=O)[O-])CC1.[Eu+3] | – | 1 M HCl | 298 K, complex dissociation | – | dissociation rate constant | 3.6e-05 ± 2e-06 s⁻¹ |
| CCCC[C@H](NC(=O)[C@@H](NC(=O)[C@H](CC(=O)O)NC(=O)[C@H](CCC(N)=O)NC(=O)[C@H](CC(C)C)NC(=O)[C@H](CC(C)C)NC(=O)[C@H](CCCN)NC(=O)[C@H](CCCNC(=N)N)NC(=O)[C@H](C)NC(=O)[C@H](CO)NC(=O)[C@H](CC(C)C)NC(=O)[C@H](CCC(N)=O)NC(=O)[C@H](CC)NC(=O)[C@H](CC(C)C)NC(=O)[C@@H](NC(=O)[C@H](CCCN)NC(=O)[C@H](CCCNC(=N)N)NC(=O)[C@H](Cc1ccc(O)cc1)NC(=O)[C@H](CO)NC(=O)[C@H](CCC(N)=O)NC(=O)[C@@H](NC(=O)[C@H](Cc1ccccc1)NC(=O)[C@@H](NC(=O)[C@H](C)NC(=O)[C@H](CC(=O)O)NC(=O)[C@@H](C)NC(=O)CCc1ccc(O)cc1)[C@@H](C)CC)[C@@H](C)O)C(C)C)[C@@H](C)CC)C(=O)N[C@@H](CC(=O)O)C(=O)N[C@@H](CCCNC(=N)N)C(=O)NC | GH release | rat, male, serum | subcutaneous, 3 µg/kg, 30 min | relative to: reference GHRH agonist JI-38 | relative potency | 0.9 |
| [2H]C([2H])([2H])C(c1cc2nnc(-c3cc(F)ccc3F)n2nc1OCc1ncnn1C)(C([2H])([2H])[2H])C([2H])([2H])[2H] | – | amygdala-kindled Wistar rats, amygdala | oral, 6 mg/kg, 2 h before stimulation | relative to: baseline | afterdischarge duration change | -46% |
| CCCC[C@H](NC(=O)[C@@H](NC(=O)[C@H](CC(=O)O)NC(=O)[C@H](CCC(N)=O)NC(=O)[C@H](CC(C)C)NC(=O)[C@H](CC(C)C)NC(=O)[C@H](CCCN)NC(=O)[C@H](CCCNC(=N)N)NC(=O)[C@H](C)NC(=O)[C@H](CO)NC(=O)[C@H](CC(C)C)NC(=O)[C@H](CCC(N)=O)NC(=O)[C@H](CC)NC(=O)[C@H](CC(C)C)NC(=O)[C@@H](NC(=O)[C@H](CCCN)NC(=O)[C@H](CCCNC(=N)N)NC(=O)[C@H](Cc1ccc(O)cc1)NC(=O)[C@H](CO)NC(=O)[C@H](CCC(N)=O)NC(=O)[C@@H](NC(=O)[C@H](Cc1ccccc1)NC(=O)[C@@H](NC(=O)[C@H](C)NC(=O)[C@H](CC(=O)O)NC(=O)[C@@H](C)NC(=O)[C@H](Cc1ccc(O)cc1)NC)[C@@H](C)CC)[C@@H](C)O)C(C)C)[C@@H](C)CC)C(=O)N[C@@H](CC(=O)O)C(=O)N[C@@H](CCCNC(=N)N)C(=O)NCCCCC(N)=O | GH release | rat, male, serum | subcutaneous, dose not given, 15 and 30 min | relative to: reference GHRH agonist JI-38 | relative potency | 1 to 4 fold |
| COc1cc(/C=C/c2cc(O)cc(O)c2)ccc1O | – | – | concentration not given | – | initial DPPH scavenging rate | 1.77 µmol/L/s |
